Measurements gathered from unrelated publications.
Each numbered part is a random draw from the data of one study; scales do not carry over between parts.

Block 1 — technique: RNA Bind-n-Seq; molecule type: RNA; medium: in vitro; tested at: 200 nM; setting: whole 134-nt RNA, ends assumed; with: 150 mM LiCl; relative to: input library; direction: higher = stronger binding; quantity: log2 enrichment; each molecule: 7-deaza-guanosine replaces G
Target: Fragile X messenger ribonucleoprotein 1, C-terminal low-complexity region (Fmr1, Mus musculus, UniProt P35922)
All sequences stand within: GGGAGUUCUACAGUCCGACGAUC … UGGAAUUCUCGGGUGUCAAGG
UACUCUUUGAUUUAUCAAAUGUGUUCAGUUGGAGAAUCGUCCUCAGGAAAGGCUUCAAGGAGCCUUGCACAGCAUAUUCCUGGCCCUGGU: -2.66
AGUCCUGUGCUACACAUCGUAUGUACCGAAUCGUGUGUGUGUGUGUGUGUGUGUGUGUAAAGUAUUAUGUUACGCCGUUCGGAUCUGCAC: -0.249
UGUGCUACACAUCGUAUGUACCGAAUCGGGGUUUUUUUGGGUUUUUUUGGGUUUUUUUGGGGAAAGUAUUAUGUUACGCCGUUCGGAUCU: 1.49
GUCCUGUGCUACACAUCGUAUGUACCGAAUCAAAUUUUUAAAUUUUUUUAAAUUUAAAAAAGUAUUAUGUUACGCCGUUCGGAUCUGCAC: -3.23
GUCCUGUGCUACACAUCGUAUGUACCGAAUCGGUUUUUGGGGUUUUUGGGUUUUUGGGGAAAGUAUUAUGUUACGCCGUUCGGAUCUGCA: -1.02
CAAGUCCUGUGCUACACAUCGUAUGUACCGAAUCGGCCCCGGCCCCGGGCCCCGGGAAAGUAUUAUGUUACGCCGUUCGGAUCUGCACUU: -1.78
CUGUGCUACACAUCGUAUGUACCGAAUCGGGUUUUUUUGGGGUUUUUUUGGUUUUUUUGGGGAAAGUAUUAUGUUACGCCGUUCGGAUCU: 0.973
CACAGACAACACGCACCCACACAGACACAGAGGGAAGGGGUUGGGAUGGGGACAGGGUGCACUGCAGGGCGGGGUAGGACCCCAGCCCCU: -0.922
CUGUGCUACACAUCGUAUGUACCGAAUCGGGAAAAAAAGGGGAAAAAAAGGGAAAAAAAGGAAAGUAUUAUGUUACGCCGUUCGGAUCUG: 0.237

Block 2 — technique: universal PBM; molecule type: double-stranded DNA, one strand shown; medium: in vitro; tested at: 600 nM; direction: higher = stronger binding; quantity: E-score
Target: Sal-like protein 4, full length isoform A (SALL4, Homo sapiens, UniProt Q9UJQ4, residues 1-1053)
UniProt Q9UJQ4, sequence (whole entry, looked up): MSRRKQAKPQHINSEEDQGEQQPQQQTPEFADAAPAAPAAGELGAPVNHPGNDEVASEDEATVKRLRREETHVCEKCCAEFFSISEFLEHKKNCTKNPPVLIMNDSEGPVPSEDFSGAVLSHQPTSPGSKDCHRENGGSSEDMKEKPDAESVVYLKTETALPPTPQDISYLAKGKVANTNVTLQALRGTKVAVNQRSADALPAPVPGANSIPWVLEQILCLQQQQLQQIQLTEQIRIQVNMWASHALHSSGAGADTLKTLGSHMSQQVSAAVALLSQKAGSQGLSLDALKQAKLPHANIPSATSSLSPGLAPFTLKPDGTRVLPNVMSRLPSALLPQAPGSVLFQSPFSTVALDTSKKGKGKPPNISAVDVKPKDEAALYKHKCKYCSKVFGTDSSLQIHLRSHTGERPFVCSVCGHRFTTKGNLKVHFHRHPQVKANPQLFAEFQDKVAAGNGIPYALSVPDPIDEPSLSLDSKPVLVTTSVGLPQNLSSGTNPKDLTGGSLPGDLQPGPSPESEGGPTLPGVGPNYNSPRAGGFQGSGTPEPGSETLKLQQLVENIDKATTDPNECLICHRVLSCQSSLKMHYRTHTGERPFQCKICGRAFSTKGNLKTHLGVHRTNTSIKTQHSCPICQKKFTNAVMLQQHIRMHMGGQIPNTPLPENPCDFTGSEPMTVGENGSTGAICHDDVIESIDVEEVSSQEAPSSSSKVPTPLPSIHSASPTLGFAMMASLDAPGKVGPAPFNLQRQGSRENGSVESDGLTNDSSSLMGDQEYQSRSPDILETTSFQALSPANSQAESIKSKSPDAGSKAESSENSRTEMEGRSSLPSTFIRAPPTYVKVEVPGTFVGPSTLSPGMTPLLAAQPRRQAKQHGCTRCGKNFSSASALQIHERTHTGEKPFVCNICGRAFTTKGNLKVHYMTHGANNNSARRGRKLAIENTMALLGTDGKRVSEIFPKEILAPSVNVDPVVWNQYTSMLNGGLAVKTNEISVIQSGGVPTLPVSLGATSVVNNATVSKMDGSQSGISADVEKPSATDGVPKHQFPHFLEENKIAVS
Setting: 8-mer, flanks averaged, mean of replicates
CGTATTCA: 0.232
ATGTGAAA: 0.28
ACAGAGCT: -0.217
AAGAAATC: 0.111
AATAACAC: 0.188
GAAGGAGA: 0.0616
CAGAGCTC: -0.212
ACCGCGCA: -0.238
AAAGCCCG: -0.135
ATGTGCTA: 0.15
GCTCAAGC: -0.122
ATTAGGGG: -0.0559
AGTTGAAG: 0.00555
ATTGTAAC: 0.244
ACTAATGG: 0.0937
CAAAAGAG: 0.0246

Block 3 — technique: competition protein-binding microarray; molecule type: double-stranded DNA, one strand shown; medium: in vitro; tested at: 2 µM; with: Cbf1 competitor, 0.05 µM; direction: higher = stronger binding; quantity: fluorescence intensity; all sequences stand within: … GTCTTGATTCGCTTGACGCTGCTG
Target: Phosphate system positive regulatory protein PHO4, full length, GST-tagged (PHO4, Saccharomyces cerevisiae, UniProt P07270, residues 1-312)
Setting: whole 60-bp probe, lowest competitor level
Residues (chain): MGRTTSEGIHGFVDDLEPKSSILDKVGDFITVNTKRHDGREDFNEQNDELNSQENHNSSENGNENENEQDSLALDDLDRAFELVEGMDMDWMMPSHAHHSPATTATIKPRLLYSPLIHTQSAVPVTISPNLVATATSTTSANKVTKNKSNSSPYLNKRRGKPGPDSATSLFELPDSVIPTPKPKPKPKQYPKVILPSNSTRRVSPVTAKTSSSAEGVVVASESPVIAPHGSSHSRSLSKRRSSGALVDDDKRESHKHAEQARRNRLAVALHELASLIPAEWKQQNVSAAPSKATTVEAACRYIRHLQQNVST
CTTTCCCGATCTTGTCACTCAACTTTAGCACATTTG: 3940 a.u.
GGAGAAGGTATTGATAACCTGCGGGACCGTCTGGTG: 2720 a.u.
TATGGCATGAAAAATCATATGACTTCAAAAATGAAC: 4060 a.u.
TTTTATCTTTTTGGTTCTGTGATGAAGCTACCCGCG: 2630 a.u.
CGGGGTTAAGTTTGTCAAGTGGGTGGCTTGCAGCAG: 3980 a.u.
CGTCCTAGTGATTGTCACCGCACTTCCATGAGGAAG: 4230 a.u.
CGTCCTAGCGATTGACACGTGGGTGCCATGAGGAAG: 18900 a.u.
AAATTACTAAGTTTTCACGTGGGGTACCCCGTATGA: 14200 a.u.
TCCCCATGAACTCAGCATGTGCTACTCCAGTTAATG: 10300 a.u.
CATACCCAACCTTGCACGGTGGGTGAAGATATTTGT: 8210 a.u.
CAGTCTACCAAGGTGAACGTGTTGACTGTAAAGAAA: 10700 a.u.

Single results of other studies
PhoQ, residues 284 288 289 292 302 303 TTSMTC  fold induction (PhoP, residues 12 14 15 18 19 LFHKL (Escherichia coli, UniProt P23836); Sort-seq, refers to: YFP reporter; E. coli; PhoQ-PhoP variant library, with: 10 µM Mg2+; relative to: high Mg2+ state, higher = stronger signaling): 2.73

A few entries again (block 3):
TCCCCATGAACTCAGCATGTGCTACTCCAGTTAATG: 10300 a.u.
CGTCCTAGTGATTGTCACCGCACTTCCATGAGGAAG: 4230 a.u.
TTTTATCTTTTTGGTTCTGTGATGAAGCTACCCGCG: 2630 a.u.
